Experimental data pooled from the literature.
A part holds a random share of what one study measured. Values joined by “and” are separate records of one study, mostly repeats; a detail may differ.

Sample 1
Compound: C[C@@H]1CN(c2ccc(-c3cc(C(=O)NCCOCCOCCOCCOCCNC(=O)Cn4cc(-c5[nH]cc(C(=O)N[C@@H](CC(N)=O)c6ccc(F)c(Cl)c6)c5-c5ccc(Cl)cc5F)cn4)ccc3F)cc2NC(=O)c2c[nH]c(=O)cc2C(F)(F)F)C[C@H](C)N1C
Action: degrader
Time: 24 h
Measurement: remaining protein level
WDR5/DCAF1: WDR5/DCAF1 (Homo sapiens, UniProt P61964+Q9Y4B6)
WDR5: WD repeat-containing protein 5 (WDR5, Homo sapiens, UniProt P61964)
WDR5/DCAF1; HiBiT luminescence; 227 nM: 88.2% and 82.9% and 75.1%
WDR5; Jess capillary immunoassay, item: WDR5 over vinculin; 777 nM; baseline: DMSO: 104% and 74.9% and 89.5%
WDR5; Jess capillary immunoassay, item: WDR5 over vinculin; 1821 nM; baseline: DMSO: 83.3% and 65.4% and 85.5%
WDR5/DCAF1; HiBiT luminescence; 585 nM: 64.3% and 69.5% and 70.7%
WDR5/DCAF1; HiBiT luminescence; 88.1 nM: 94.9% and 89.9% and 83.4%
WDR5; Jess capillary immunoassay, item: WDR5 over vinculin; 4270 nM; baseline: DMSO: 79.8% and 93.6% and 122%
WDR5/DCAF1; HiBiT luminescence; 5.15 nM: 106% and 97.5% and 108%
WDR5; Jess capillary immunoassay, item: WDR5 over vinculin; 10000 nM; baseline: DMSO: 106% and 195% and 83.7%

Sample 2
Target: Calcium/calmodulin-dependent protein kinase type II subunit alpha (CAMK2A, Homo sapiens, UniProt Q9UQM7)
Observed: enzyme activity
Action: inhibitor
Tested at: 10 µM
Measurement: inhibition
C=C1[C@H](O)C[C@H]2[C@@H](/C=C(\C)C(=O)[C@@]3(O)C[C@H](C)[C@H](O)[C@@H]3[C@H]1O)C2(C)C: -7%
CCCCCCCCCCCCO: -48%
CCCCN1CCCC[C@H]1C(=O)Nc1c(C)cccc1C: -6%
CCOC(=O)C(C)(C)Oc1ccc(Cl)cc1: -16%
O=c1cc(-c2ccccc2)oc2cc(O[C@@H]3O[C@H](CO[C@@H]4O[C@H](CO)[C@@H](O)[C@H](O)[C@H]4O)[C@@H](O)[C@H](O)[C@H]3O)c(O)c(O)c12: -7%
C=C(C)[C@@H]1CC[C@]2(C(=O)O)CC[C@]3(C)[C@H](CC[C@@H]4[C@@]5(C)CCC(=O)C(C)(C)[C@@H]5CC[C@]43C)[C@@H]12: -31%
Cc1c(=O)c(=O)c2c3c[nH]c4c(C)c(=O)c(=O)c(c5c[nH]c1c52)c43: -17%
NC(=O)c1cn(Cc2c(F)cccc2F)nn1: 1%
NCC(=O)N1CCC[C@H]1C(=O)O: -25%
CC1(C)CC[C@]2(CO)CC[C@]3(C)C(=CC[C@@H]4[C@@]5(C)CC[C@H](O)C(C)(C)[C@@H]5CC[C@]43C)[C@@H]2C1: -1%
CC(C)(O)[C@@H]1CC[C@](C)([C@H]2[C@@H](O)C[C@@]3(C)[C@@H]4C[C@H](O[C@@H]5O[C@H](CO)[C@@H](O)[C@H](O)[C@H]5O)[C@H]5C(C)(C)[C@@H](O[C@@H]6OC[C@@H](O)[C@H](O)[C@H]6O)CC[C@@]56C[C@@]46CC[C@]23C)O1: 22%

Sample 3
SMILES: CCS(=O)(=O)c1cc2cc(C[C@](O)(CC(C)(C)c3ccc(F)cc3C(N)=O)C(F)(F)F)[nH]c2cn1
Technique: competition with immobilised ligand
Tested at: 1 µM
Measurement: remaining binding
Receptor-type tyrosine-protein kinase FLT3 (FLT3, Homo sapiens, UniProt P36888, R834Q); cell-free assay: 100%
Testis-specific serine/threonine-protein kinase 1 (TSSK1B, Homo sapiens, UniProt Q9BXA7); cell-free assay: 94%
Casein kinase I isoform gamma-1 (CSNK1G1, Homo sapiens, UniProt Q9HCP0); cell-free assay: 96%
Mitotic checkpoint serine/threonine-protein kinase BUB1 (BUB1, Homo sapiens, UniProt O43683); cell-free assay: 86%
Mitogen-activated protein kinase kinase kinase 6 (MAP3K6, Homo sapiens, UniProt O95382); cell-free assay: 55%
cAMP-dependent protein kinase catalytic subunit PRKX (PRKX, Homo sapiens, UniProt P51817); cell-free assay: 100%
Serine/threonine-protein kinase Nek4 (NEK4, Homo sapiens, UniProt P51957); cell-free assay: 85%
LIM domain kinase 2 (LIMK2, Homo sapiens, UniProt P53671); cell-free assay: 100%
Mitogen-activated protein kinase kinase kinase 11 (MAP3K11, Homo sapiens, UniProt Q16584); cell-free assay: 100%
Calcium/calmodulin-dependent protein kinase type 1D (CAMK1D, Homo sapiens, UniProt Q8IU85); cell-free assay: 100%
Dual specificity tyrosine-phosphorylation-regulated kinase 1B (DYRK1B, Homo sapiens, UniProt Q9Y463); cell-free assay: 88%
Serine/threonine-protein kinase pim-3 (PIM3, Homo sapiens, UniProt Q86V86); cell-free assay: 100%
Tyrosine-protein kinase ABL1, phosphorylated (ABL1, Homo sapiens, UniProt P00519, Q252H); cell-free assay: 100%
G protein-coupled receptor kinase 3 (GRK3, Homo sapiens, UniProt P35626); cell-free assay: 100%
LIM domain kinase 1 (LIMK1, Homo sapiens, UniProt P53667); cell-free assay: 100%
Proto-oncogene tyrosine-protein kinase receptor Ret (RET, Homo sapiens, UniProt P07949); cell-free assay: 93%
Mast/stem cell growth factor receptor Kit (KIT, Homo sapiens, UniProt P10721); cell-free assay: 95%
Calcium/calmodulin-dependent protein kinase type II subunit alpha (CAMK2A, Homo sapiens, UniProt Q9UQM7); cell-free assay: 94%
Tyrosine-protein kinase ABL1, phosphorylated (ABL1, Homo sapiens, UniProt P00519, E255K); binding: 92%
Cyclin-dependent kinase 4 (CDK4, Homo sapiens, UniProt P11802); cell-free assay: 100%
Transient receptor potential cation channel subfamily M member 6 (TRPM6, Homo sapiens, UniProt Q9BX84); cell-free assay: 86%
Phosphorylase b kinase gamma catalytic chain, liver/testis isoform (PHKG2, Homo sapiens, UniProt P15735); cell-free assay: 100%
Platelet-derived growth factor receptor alpha (PDGFRA, Homo sapiens, UniProt P16234); cell-free assay: 82%
MAP/microtubule affinity-regulating kinase 4 (MARK4, Homo sapiens, UniProt Q96L34); cell-free assay: 100%

Sample 4
Target: Diamine acetyltransferase 1 (Homo sapiens, UniProt P21673)
Action: inhibitor
Tested at: 10 µM
Baseline: control
Measurement: remaining activity
Construct (P21673 1-171): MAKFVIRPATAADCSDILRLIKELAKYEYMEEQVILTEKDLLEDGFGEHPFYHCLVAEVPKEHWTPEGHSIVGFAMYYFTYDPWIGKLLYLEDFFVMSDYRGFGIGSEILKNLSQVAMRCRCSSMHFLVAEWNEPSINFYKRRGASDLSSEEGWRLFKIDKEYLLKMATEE
C=C(C)[C@@H]1CC[C@]2(CO)CC[C@]3(C)[C@H](CC[C@@H]4[C@@]5(C)CC[C@H](O)C(C)(C)[C@@H]5CC[C@]43C)[C@@H]12: 101%
CC(C)CCC[C@@H](C)[C@H]1CC[C@H]2C3=CC[C@H]4C[C@@H](O)CC[C@]4(C)[C@H]3CC[C@]12C: 104%
COc1ccc(-c2cc(=O)c3c(O)c(OC)c(OC)c(OC)c3o2)cc1: 104%
CC1(C)CC[C@]2(C(=O)O)CC[C@]3(C)C(=CC[C@@H]4[C@@]5(C)CC[C@H](O)C(C)(C)[C@@H]5CC[C@]43C)[C@@H]2C1: 94.2%
COc1ccc(-c2cc(=O)c3c(O)cc(O)cc3o2)cc1O: 95.8%
CCCCCCCCCCCCCCCC(=O)OC: 101%
C/C=C(/C)C(=O)OC(=O)/C(C)=C\C: 108%
C[C@H](C[C@H](O)[C@H]1OC1(C)C)C1=C2C[C@H](O)[C@H]3[C@@]4(C)CCC(=O)C(C)(C)[C@@H]4CC[C@]3(C)[C@@]2(C)CC1: 87%

Some of these lines once more (sample 3):
Mitogen-activated protein kinase kinase kinase 11 (MAP3K11, Homo sapiens, UniProt Q16584); cell-free assay: 100%
Calcium/calmodulin-dependent protein kinase type 1D (CAMK1D, Homo sapiens, UniProt Q8IU85); cell-free assay: 100%
Dual specificity tyrosine-phosphorylation-regulated kinase 1B (DYRK1B, Homo sapiens, UniProt Q9Y463); cell-free assay: 88%
